Measurements from different studies.
Protocols differ between the studies behind these lines. Values joined by “and” are separate records of one study, mostly repeats; a detail may differ.
Effect on: cell growth or viability

Compound	cell line	method	concentration	time	viability
COc1cccc2c1C(=O)c1c(O)c3c(c(O)c1C2=O)C[C@@](O)(C(=O)CO)C[C@@H]3O[C@H]1C[C@H](N)[C@H](O)[C@H](C)O1	WI-38	MTT	12.5 µM	24 h	34%
Nc1ccn([C@@H]2O[C@H](CO)[C@@H](O)C2(F)F)c(=O)n1	HEK293	MTT	10 µg/mL	24 h	10.7%
N[C@H]1C(O)O[C@H](CO)[C@@H](O)[C@@H]1O (stereo partly drawn)	Caco-2	CCK-8	1 µM	–	97.6%
N#CC(C(=O)Nc1cccc(C(F)(F)F)c1)=C1Sc2nc3ccc(S(=O)(=O)N4CCCC4)cc3nc2S1	WI-38	MTT	6.25 µM	24 h	96.1%
Cn1cnc2c1c(=O)n(CC(=O)Nc1c(Cl)cccc1Cl)c(=O)n2C	NCI-H1975	MTT	0.4 µg	–	82.7%
COc1cccc2c1C(=O)c1c(O)c3c(c(O)c1C2=O)C[C@@](O)(C(=O)CO)C[C@@H]3O[C@H]1C[C@H](N)[C@H](O)[C@H](C)O1	K562	MTT	25 µg/mL	–	52.3%
COc1cccc(NC(=O)Nc2ccc(Oc3nc4ccccc4n4cnnc34)cc2)c1	WI-38	MTT	1.56 µM	24 h	100%
O=C1CCCCC1=C1Sc2nc3ccc(S(=O)(=O)N4CCCC4)cc3nc2S1	WI-38	MTT	100 µM	24 h	47.9%
CC(=O)c1nn(-c2ccc(C)cc2)/c(=N/N=C(\C)c2ccc(NC(=O)c3ccccc3)cc2)s1	WI-38	MTS	2.5 µM	24 h	3.48%
CCOC(=O)C(C(C)=O)=C1Sc2nc3ccc(S(=O)(=O)N4CCCC4)cc3nc2S1	WI-38	MTT	3.125 µM	24 h	100%
CNC(=O)c1cc(Oc2ccc(NC(=O)Nc3ccc(Cl)c(C(F)(F)F)c3)cc2)ccn1	WI-38	MTT	50 µM	24 h	17.8%
COc1cc(N2CCC(N3CCN(C)CC3)CC2)ccc1Nc1ncc(Cl)c(Nc2ccccc2P(C)(C)=O)n1	Ba/F3 EML4-ALK	CCK-8	1 µM	24 h	5% and 4%

Repeated from above:
Compound	cell line	method	concentration	time	viability
COc1cccc2c1C(=O)c1c(O)c3c(c(O)c1C2=O)C[C@@](O)(C(=O)CO)C[C@@H]3O[C@H]1C[C@H](N)[C@H](O)[C@H](C)O1	K562	MTT	25 µg/mL	–	52.3%
COc1cccc(NC(=O)Nc2ccc(Oc3nc4ccccc4n4cnnc34)cc2)c1	WI-38	MTT	1.56 µM	24 h	100%
